Experimental data of several laboratories.
Compare with care: the assays were run in different laboratories. “And” joins repeats or separate records; there may be more than shown. ± gives the spread as reported.
EIF4E2: EIF4E2 52-234 (Homo sapiens, UniProt O60573-1)
T1: ATRX ADD domain 167-289 K251R/F284Y (Homo sapiens); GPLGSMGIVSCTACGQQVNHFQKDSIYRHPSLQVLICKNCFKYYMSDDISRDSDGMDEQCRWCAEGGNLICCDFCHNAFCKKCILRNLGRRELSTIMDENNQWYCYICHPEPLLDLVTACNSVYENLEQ
T2: BPTF PHD domain Y23M; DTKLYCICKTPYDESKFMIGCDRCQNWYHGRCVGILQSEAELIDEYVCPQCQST
B1: PUX5 301-421 F395A (Arabidopsis thaliana, UniProt Q7Y175); chain KNPFQGVGRTLGASGSGSSSAPQASSAPMNVAPAPSRGLVVDPAAPTTSIQLRLADGTRLVSRFNNHHTVRDVRGFIDASRPGGSKEYQLLTMGAPPKQLTELDQTIEQAGIANAVVIQKF
B2: protein 1-89 (Arabidopsis thaliana, UniProt Q9LYC2); sequence looked up; chain MTMLRVRSRDGLERVSVDGPHITVSQLKTLIQDQLQIPIHNQTLSTNRNLLLAKSPSDFLAFTDMADPNLRISSLNLAHGSMVYLAYEG
B3: ATG23 full-length, dimer (Saccharomyces cerevisiae, UniProt Q06671); sequence looked up; chain MELNQVLEKKEQILQYLGTLVGLHEKALSDVNSASQVTSIRKDITICLNDLCRINDLLVSHDGLLKREIGSLLRDKQELLELNEREQLLWKERKSWHIKQETDAAPADYVIDKDAIITISSHHRTSLNKYIESVGAENTILSNTDDSDAMIEEVQNAESSADQMIRNYKLLQLSHKQAKSEIIRLETLLRDFKKDNKFIEEELKRQSGRIRSEMGNIDFHLSKIEESKHQLMKRIGFESPLTQEKSLSEKIFNLRLSSADEDYNERQTINMKNFVHMKDLIELKIEDLQEQLMRNKNESSTVLTQRELWLDCQKKVGDLESKLITKLRSSSNSKIPPNEMSEMINSTIQYLNNLLDSSDEKLTTTLISNERDVLSKACEELHSESTTAQDGSSALPSKPIDIHKSHKGSNASSNLKQPSTPSFLVASKSPPKIGISESVVNANKNDAISKKVE
B4: SEPTIN7 (Homo sapiens, UniProt Q16181); sequence looked up; chain MSVSARSAAAEERSVNSSTMVAQQKNLEGYVGFANLPNQVYRKSVKRGFEFTLMVVGESGLGKSTLINSLFLTDLYSPEYPGPSHRIKKTVQVEQSKVLIKEGGVQLLLTIVDTPGFGDAVDNSNCWQPVIDYIDSKFEDYLNAESRVNRRQMPDNRVQCCLYFIAPSGHGLKPLDIEFMKRLHEKVNIIPLIAKADTLTPEECQQFKKQIMKEIQEHKIKIYEFPETDDEEENKLVKKIKDRLPLAVVGSNTIIEVNGKRVRGRQYPWGVAEVENGEHCDFTILRNMLIRTHMQDLKDVTNNVHYENYRSRKLAAVTYNGVDNNKNKGQLTKSPLAQMEEERREHVAKMKKMEMEMEQVFEMKVKEKVQKLKDSEAELQRRHEQMKKNLEAQHKELEEKRRQFEDEKANWEAQQRILEQQNSSRTLEKNKKKGKIF
B5: BBC3 (Homo sapiens, UniProt Q9BXH1-2); chain MKFGMGSAQACPCQVPRAASTTWVPCQICGPQPSLSLAEQHLESPVPSAPGALAGGPTQAAPGVRGEEEQWAREIGAQLRRMADDLNAQYERRRQEEQQRHRPSPWRVLYNLIMGLLPLPRGHRAPEMEPN
B6: DTNB 422-535 (Homo sapiens, UniProt O60941-1); sequence looked up; chain PPTDLSFNFDANKQQRQLIAELENKNREILQEIQRLRLEHEQASQPTPEKAQQNPTLLAELRLLRQRKDELEQRMSALQESRRELMVQLEELMKLLKEEEQKQAAQATGSPHTS
B7: PUX7 322-468 (Arabidopsis thaliana, UniProt Q94JZ8); chain EDVAKDEEEEELQRALAASLEDNNMKESSDDQSTIIPEEVAVEAVTSAVLPTFPPLPEEPKGGDRSLQCRVGIRLPNGQRLQRNFLKTDTIQLLWSFCYSQLEESERKKPLKLTQAIPGESKTLEYESNLTLEQSGVANSMISATWE
B8: SPP1 (Saccharomyces cerevisiae, UniProt Q03012); chain MSLPQWCPPHSTLKRNPTTGEDVYCICKRPDYGELMVGCDGCDDWFHFTCLHIPEQFKDLVFSFYCPYCQAGITGKNKDAIINGEGSLPKTLWKRKCRISDCYKPCLQDSKYCSEEHGREFVNDIWSRLKTDEDRAVVKKMVEQTGHIDKFKKFGQLDFIDNNIVVKTDDEKEIFDQIVVRDMTLKTLEDDLQEVQEISLPLFKKKLELLEVYLGWLDNVYTEMRKLDDDAASHVECGKEDSKGTKRKKKKNSSRSRARKNICGYCSTYERIPCSVEEFVRDFGSNEEATKIHEVCTKWKCNRHLDWVSTNQEQYLQQIDSLESMQERLQHLIQARKKQLNIQYYEEILRRGL
B9: PUX5 301-421 F395S (Arabidopsis thaliana, UniProt Q7Y175); chain KNPFQGVGRTLGASGSGSSSAPQASSAPMNVAPAPSRGLVVDPAAPTTSIQLRLADGTRLVSRFNNHHTVRDVRGFIDASRPGGSKEYQLLTMGSPPKQLTELDQTIEQAGIANAVVIQKF
UniProt Q64663, sequence (whole entry, unmodified, looked up): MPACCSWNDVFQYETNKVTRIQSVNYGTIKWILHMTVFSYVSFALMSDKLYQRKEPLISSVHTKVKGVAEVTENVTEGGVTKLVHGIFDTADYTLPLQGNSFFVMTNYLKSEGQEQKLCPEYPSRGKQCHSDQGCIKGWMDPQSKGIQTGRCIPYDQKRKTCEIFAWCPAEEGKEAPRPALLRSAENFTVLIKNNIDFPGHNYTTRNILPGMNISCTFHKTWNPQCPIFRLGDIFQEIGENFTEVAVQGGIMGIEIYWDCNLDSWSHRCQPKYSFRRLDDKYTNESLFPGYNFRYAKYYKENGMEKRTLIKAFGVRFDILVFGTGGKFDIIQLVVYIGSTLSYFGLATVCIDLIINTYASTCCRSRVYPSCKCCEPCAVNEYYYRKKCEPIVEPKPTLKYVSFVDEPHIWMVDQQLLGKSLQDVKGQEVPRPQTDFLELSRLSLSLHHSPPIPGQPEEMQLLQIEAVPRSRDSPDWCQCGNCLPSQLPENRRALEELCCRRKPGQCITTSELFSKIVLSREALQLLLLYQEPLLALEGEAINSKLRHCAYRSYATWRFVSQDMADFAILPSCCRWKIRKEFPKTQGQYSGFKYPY
UniProt P54609, sequence (whole entry, looked up): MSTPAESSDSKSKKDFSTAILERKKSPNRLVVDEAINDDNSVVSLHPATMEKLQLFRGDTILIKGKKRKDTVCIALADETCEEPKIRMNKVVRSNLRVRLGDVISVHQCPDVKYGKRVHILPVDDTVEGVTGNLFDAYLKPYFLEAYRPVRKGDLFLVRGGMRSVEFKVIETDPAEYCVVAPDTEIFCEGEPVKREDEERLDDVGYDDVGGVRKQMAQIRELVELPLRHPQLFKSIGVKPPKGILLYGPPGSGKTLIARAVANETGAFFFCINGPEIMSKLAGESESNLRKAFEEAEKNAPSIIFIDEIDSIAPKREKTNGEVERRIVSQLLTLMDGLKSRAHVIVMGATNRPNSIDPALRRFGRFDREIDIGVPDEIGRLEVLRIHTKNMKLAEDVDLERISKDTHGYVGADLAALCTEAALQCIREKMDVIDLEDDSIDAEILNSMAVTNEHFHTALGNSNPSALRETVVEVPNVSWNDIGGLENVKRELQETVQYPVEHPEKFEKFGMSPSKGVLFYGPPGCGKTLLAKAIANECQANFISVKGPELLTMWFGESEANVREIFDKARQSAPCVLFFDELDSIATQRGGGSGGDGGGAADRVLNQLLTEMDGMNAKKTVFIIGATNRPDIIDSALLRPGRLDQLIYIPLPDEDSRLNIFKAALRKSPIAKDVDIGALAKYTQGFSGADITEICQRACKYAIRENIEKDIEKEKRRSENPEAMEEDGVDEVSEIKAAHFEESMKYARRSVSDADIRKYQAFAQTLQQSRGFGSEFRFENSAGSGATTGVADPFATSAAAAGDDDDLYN
UniProt Q12142, sequence (whole entry, looked up): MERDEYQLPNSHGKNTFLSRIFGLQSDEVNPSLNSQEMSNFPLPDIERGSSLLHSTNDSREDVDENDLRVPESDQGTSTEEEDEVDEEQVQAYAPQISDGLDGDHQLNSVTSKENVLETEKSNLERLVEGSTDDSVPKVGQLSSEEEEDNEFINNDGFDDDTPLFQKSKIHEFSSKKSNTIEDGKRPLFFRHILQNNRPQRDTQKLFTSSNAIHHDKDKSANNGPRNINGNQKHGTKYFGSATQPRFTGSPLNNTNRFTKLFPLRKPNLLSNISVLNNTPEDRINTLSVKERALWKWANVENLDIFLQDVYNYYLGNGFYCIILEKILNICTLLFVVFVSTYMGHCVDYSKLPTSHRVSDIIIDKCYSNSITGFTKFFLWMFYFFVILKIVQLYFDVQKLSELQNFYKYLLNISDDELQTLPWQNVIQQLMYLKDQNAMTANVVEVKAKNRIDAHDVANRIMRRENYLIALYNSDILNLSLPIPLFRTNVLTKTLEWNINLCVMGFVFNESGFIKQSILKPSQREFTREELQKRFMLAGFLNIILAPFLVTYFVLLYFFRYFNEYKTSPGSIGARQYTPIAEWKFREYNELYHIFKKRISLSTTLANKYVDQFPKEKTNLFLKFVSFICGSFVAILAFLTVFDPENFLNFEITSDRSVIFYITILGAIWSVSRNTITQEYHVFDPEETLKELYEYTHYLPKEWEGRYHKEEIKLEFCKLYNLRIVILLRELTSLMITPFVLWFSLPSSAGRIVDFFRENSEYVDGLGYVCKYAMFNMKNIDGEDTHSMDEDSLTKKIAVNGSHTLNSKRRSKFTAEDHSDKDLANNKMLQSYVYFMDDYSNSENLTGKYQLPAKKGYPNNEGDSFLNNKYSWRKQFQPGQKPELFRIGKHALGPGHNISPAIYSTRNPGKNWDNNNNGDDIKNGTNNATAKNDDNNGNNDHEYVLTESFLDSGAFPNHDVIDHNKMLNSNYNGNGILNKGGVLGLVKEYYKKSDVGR
UniProt P0C0L4, sequence (whole entry, looked up): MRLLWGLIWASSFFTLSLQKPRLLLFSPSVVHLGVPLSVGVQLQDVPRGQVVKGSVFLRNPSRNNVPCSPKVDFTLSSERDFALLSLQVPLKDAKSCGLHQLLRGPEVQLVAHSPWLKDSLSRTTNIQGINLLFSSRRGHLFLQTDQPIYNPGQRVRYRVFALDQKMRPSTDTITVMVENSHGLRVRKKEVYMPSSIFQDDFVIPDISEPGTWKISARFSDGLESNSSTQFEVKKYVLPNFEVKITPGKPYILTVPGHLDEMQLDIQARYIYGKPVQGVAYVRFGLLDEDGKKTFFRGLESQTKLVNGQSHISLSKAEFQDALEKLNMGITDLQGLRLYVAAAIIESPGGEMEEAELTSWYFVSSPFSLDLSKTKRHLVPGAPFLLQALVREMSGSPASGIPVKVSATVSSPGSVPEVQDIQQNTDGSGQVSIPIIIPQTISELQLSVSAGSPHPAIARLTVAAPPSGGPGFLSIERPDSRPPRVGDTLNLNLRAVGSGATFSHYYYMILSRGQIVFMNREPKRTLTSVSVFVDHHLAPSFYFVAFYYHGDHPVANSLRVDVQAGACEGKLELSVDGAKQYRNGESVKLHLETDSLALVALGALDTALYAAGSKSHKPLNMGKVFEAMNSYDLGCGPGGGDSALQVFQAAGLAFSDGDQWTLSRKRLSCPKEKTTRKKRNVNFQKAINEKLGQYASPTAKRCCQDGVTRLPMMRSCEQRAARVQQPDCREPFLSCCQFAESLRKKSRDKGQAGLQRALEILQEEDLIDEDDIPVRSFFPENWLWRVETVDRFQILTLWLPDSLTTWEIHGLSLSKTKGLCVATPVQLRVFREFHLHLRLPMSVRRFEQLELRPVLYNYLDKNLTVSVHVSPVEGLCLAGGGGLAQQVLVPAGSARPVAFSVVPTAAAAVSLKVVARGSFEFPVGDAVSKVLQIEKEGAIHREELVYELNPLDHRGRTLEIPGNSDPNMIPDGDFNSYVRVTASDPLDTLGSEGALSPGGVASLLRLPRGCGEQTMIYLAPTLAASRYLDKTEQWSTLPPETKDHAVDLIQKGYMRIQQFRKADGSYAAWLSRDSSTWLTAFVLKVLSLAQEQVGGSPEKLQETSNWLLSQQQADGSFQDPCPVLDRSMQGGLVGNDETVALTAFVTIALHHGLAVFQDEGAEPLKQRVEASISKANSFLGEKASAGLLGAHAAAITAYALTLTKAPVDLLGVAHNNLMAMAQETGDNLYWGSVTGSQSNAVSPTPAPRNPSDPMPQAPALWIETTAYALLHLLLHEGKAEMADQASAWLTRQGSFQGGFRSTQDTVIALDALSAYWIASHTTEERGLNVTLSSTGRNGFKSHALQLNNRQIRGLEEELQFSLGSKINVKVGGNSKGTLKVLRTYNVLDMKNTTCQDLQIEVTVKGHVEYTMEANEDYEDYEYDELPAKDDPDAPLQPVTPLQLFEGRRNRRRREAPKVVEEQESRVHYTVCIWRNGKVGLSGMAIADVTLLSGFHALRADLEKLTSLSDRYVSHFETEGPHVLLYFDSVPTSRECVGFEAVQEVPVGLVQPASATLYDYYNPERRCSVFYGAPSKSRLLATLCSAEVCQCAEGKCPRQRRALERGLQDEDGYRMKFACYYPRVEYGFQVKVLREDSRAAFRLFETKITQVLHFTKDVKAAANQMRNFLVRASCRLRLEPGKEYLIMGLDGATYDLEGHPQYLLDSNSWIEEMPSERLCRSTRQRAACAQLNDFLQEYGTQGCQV
UniProt P21651, sequence (whole entry, looked up): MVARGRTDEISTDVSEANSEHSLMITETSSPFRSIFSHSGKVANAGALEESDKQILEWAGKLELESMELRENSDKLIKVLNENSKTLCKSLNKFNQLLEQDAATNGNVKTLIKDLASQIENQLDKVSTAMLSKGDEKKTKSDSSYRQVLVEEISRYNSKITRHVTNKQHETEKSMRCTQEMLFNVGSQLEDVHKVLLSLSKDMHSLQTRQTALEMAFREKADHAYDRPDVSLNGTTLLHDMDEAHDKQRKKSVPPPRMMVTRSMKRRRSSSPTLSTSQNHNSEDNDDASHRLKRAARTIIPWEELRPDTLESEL
UniProt P15311, sequence (whole entry, looked up): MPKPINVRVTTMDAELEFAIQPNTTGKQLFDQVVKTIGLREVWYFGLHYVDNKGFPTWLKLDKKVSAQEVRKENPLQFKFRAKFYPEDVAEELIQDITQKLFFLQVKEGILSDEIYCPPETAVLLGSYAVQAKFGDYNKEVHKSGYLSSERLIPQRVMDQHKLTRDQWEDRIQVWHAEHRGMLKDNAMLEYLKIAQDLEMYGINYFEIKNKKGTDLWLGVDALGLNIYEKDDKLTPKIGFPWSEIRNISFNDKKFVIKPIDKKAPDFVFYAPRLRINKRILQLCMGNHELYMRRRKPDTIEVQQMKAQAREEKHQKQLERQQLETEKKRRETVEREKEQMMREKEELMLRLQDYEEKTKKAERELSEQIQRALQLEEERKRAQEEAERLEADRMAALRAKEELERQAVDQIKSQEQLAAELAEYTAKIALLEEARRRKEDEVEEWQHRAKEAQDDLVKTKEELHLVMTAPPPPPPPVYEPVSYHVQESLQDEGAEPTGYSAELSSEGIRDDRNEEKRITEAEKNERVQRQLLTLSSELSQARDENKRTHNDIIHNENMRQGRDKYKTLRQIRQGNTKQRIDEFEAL

| Substance | tested on | test | system | conditions | how to read | measurement | value |
| --- | --- | --- | --- | --- | --- | --- | --- |
| B1 (PUX5 301-421 F395A) | CDC48A 1-463 (Arabidopsis thaliana, UniProt P54609) | ITC | – | 25 °C | – | molecule per partner | 1.4 ± 0.1 |
| GSGAGIATEV | human MAGI1-2/6 PDZ construct (MBP fusion) | surface plasmon resonance | peptide | concentration not given | higher = stronger binding | normalised SPR binding response | 3.7 normalised RU |
| TFAFPLHVDYSWVISTEPGSDSEEDEEEKRCLLKLPAQAHWASGRLDISN (ASAP3 681-730 (Homo sapiens, UniProt Q8TDY4-1); sequence looked up) | EZR 2-296 (Homo sapiens, UniProt P15311) | SEC-MALS | – | – | – | molecule per partner | 1 |
| Atg23 full-length, dimer (yeast, UniProt Q06671) | ATG9 1-255 (Saccharomyces cerevisiae, UniProt Q12142) | ITC | – | 20 °C, NaCl 150 mM | – | molecule per partner | 0.8 |
| FGA (Homo sapiens, UniProt P02671) | ULK4 (Homo sapiens, UniProt Q96C45) | cross-linking MS | – | together with: DSSO | – | cross-linked residues | K620 to K176 |
| B2 (protein 1-89) | CDC48A (Arabidopsis thaliana, UniProt P54609) | ITC | – | together with: AMPPNP | – | molecule per partner | 0.9 |
| BzATP | P2X purinoceptor 7 (P2rx7, Rattus norvegicus, UniProt Q64663, I214A) | ion current, agonist, two-electrode voltage clamp | Xenopus oocytes | 33 µM | – | normalized current | 0.874 and 0.988 and 0.95 |
| B3 (ATG23 full-length, dimer) | ATG9 864-997 (Saccharomyces cerevisiae, UniProt Q12142) | ITC | – | 20 °C | – | molecule per partner | 0.79 |
| colistin | Pseudomonas aeruginosa | broth microdilution | clinical isolate RKI-No_216/16 | – | – | MIC | 1 µg/mL |
| GSGAGKETRV | human MAGI1-2/6 PDZ construct (MBP fusion) | surface plasmon resonance | peptide | concentration not given | higher = stronger binding | normalised SPR binding response | 38.9 normalised RU |
| 11-deoxycorticosterone | CYP11B2 (human) | substrate binding, stopped-flow global kinetic fitting | purified enzyme | 3-state conformational selection model, together with: equimolar adrenodoxin | – | rate constant k-1 | 1.38 ± 0.0822 s⁻¹ |
| ARTKQTARAS (H3C1 1-10 K9A) | T1, ATRX ADD domain 167-289 K251R/F284Y (Homo sapiens) | ITC | peptide | – | – | molecule per partner | 1.01 |
| FYN fragment (Homo sapiens) (sequence not shown) | PIK3R1 fragment (Homo sapiens) | ITC | – | – | – | molecule per partner | 0.9 ± 0.2 |
| B4 (SEPTIN7) | SEPTIN3 (Homo sapiens, UniProt Q9UH03-1) | co-sedimentation | – | – | – | molecule per partner | 1 |
| KYKLADYRYGREEMLALFLK (GIGYF2 35-54 (Homo sapiens, UniProt Q6Y7W6-1)) | EIF4E2 | ITC | peptide | – | – | molecule per partner | 1 ± 0.01 |
| B5 (BBC3) | BCL2L1 fragment (Homo sapiens) | ITC | – | – | – | molecule per partner | 0.97 |
| B6 (DTNB 422-535) | DMD 3365-3685 (Homo sapiens, UniProt P11532-1) | ITC | – | – | – | molecule per partner | 0.84 |
| ARTKQTARKSTGGKAY (H3C1 1-15; K4me3) | T1, ATRX ADD domain 167-289 K251R/F284Y (Homo sapiens) | ITC | peptide | – | – | molecule per partner | 0.97 |
| B7 (PUX7 322-468) | CDC48A 1-463 (Arabidopsis thaliana, UniProt P54609) | ITC | – | 10 °C | – | molecule per partner | 1.4 ± 0.1 |
| B8 (SPP1) | REC107 (Saccharomyces cerevisiae, UniProt P21651) | SEC-SAXS | – | – | – | molecule per partner | 2 per Mer2 tetramer |
| B9 (PUX5 301-421 F395S) | CDC48A 1-463 (Arabidopsis thaliana, UniProt P54609) | ITC | – | 25 °C | – | molecule per partner | 1.2 ± 0.1 |
| C4b (Homo sapiens, UniProt P0C0L4) | C4BP/PROS1 mature (human) | mass photometry | – | – | – | molecule per partner | 1 C4b per C4BP |
| ARTKQTARKSTGGY (H3 1-13; K4me3) | T2, BPTF PHD domain Y23M | ITC | peptide | – | – | molecule per partner | 0.772 sites and 0.678 sites and 0.767 sites |
| ARTKQTARKS (H3C1 1-10; R2me2a) | T1, ATRX ADD domain 167-289 K251R/F284Y (Homo sapiens) | ITC | peptide | – | – | molecule per partner | 0.99 |
| KYKLADYRYGREEMLALYVKENKVPEELQDKEFAAVLQD (GIGYF1 33-71 (Homo sapiens, UniProt O75420)) | EIF4E2 | ITC | peptide | – | – | molecule per partner | 1 ± 0.01 |
| Peginesatide | UT7/EPO | tyrosine phosphorylation, LC-MS/MS phosphoproteomics, GluC, measured: SHIP2 tyrosine 986 | – | 10 nM, 15 min, together with: 10 U/mL EPO | relative to: vehicle | phosphorylation level | 68.6 fold |
| SRVSYDIEHLLYYSMSPHSWTLPTDWQKMQETAPSILRNKDLQD (mxt 577-620 (Drosophila melanogaster, UniProt Q9VR35); sequence looked up) | eIF4E1 69-248 (Drosophila melanogaster, UniProt P48598-2) | ITC | – | – | – | molecule per partner | 0.98 ± 0.02 |

Excerpt of the above:
| Substance | tested on | test | system | conditions | how to read | measurement | value |
| --- | --- | --- | --- | --- | --- | --- | --- |
| B8 (SPP1) | REC107 (Saccharomyces cerevisiae, UniProt P21651) | SEC-SAXS | – | – | – | molecule per partner | 2 per Mer2 tetramer |
| ARTKQTARKSTGGY (H3 1-13; K4me3) | T2, BPTF PHD domain Y23M | ITC | peptide | – | – | molecule per partner | 0.772 sites and 0.678 sites and 0.767 sites |
| FGA (Homo sapiens, UniProt P02671) | ULK4 (Homo sapiens, UniProt Q96C45) | cross-linking MS | – | together with: DSSO | – | cross-linked residues | K620 to K176 |
